Experimental data from different studies.
Numbered parts are unrelated; each lists some results of a single study. Changes are numbered by the printed parent chain.

Sample 1
Target: PABPC1L2, full length, GST fusion (mouse, UniProt A0ABA7IW68)
Method: RNAcompete
Molecule type: RNA
Sample: in vitro
Tested at: 20 nM
Notes: 7-mer, probes averaged, single round
Baseline: mean of 7-mers
Direction: higher = stronger binding
Construct (chain): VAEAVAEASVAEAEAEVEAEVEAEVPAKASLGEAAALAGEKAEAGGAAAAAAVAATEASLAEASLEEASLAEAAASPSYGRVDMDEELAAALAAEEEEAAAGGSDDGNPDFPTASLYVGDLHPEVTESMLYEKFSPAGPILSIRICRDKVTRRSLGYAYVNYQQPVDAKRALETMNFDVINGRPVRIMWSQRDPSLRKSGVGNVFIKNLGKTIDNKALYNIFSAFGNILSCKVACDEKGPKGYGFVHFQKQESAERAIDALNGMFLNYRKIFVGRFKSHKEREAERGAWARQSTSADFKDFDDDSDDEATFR
Oligonucleotide | 7-mer Z-score
CAGCAAG | 0.0134
GCUGGCA | 0.0605
CUUUCUU | -0.467
AAUUUAC | 0.376
UCGAACU | -0.336
GAACCGU | -0.208
GAAGAUU | -0.0482
CCGUAAC | -0.275
UGAGGCA | 0.0569
CAAUAAC | 0.00979
GCACCAC | -0.0536
UUCUAAG | -0.438

Sample 2
Target: UBE2G1 UBC core domain (UniProt P62253)
Method: yeast two-hybrid
Sample: yeast
Notes: mostly zero background
Baseline: not given
Direction: higher = stronger interaction
B1: UBE4B RING domain (UniProt O95155); chain KNARAEIDYSDAPDEFRDPLMDTLMTDPVRLPSGTIMDRSIILRHLLNSPTDPFNRQTLTESMLEPVPELKEQIQAWMREKQNSDH
B2: TRIM47 RING domain (UniProt Q96LD4); chain MDGSGPFSCPICLEPLREPVTLPCGHNFCLACLGALWPHRGASGAGGPGGAARCPLCQEPFPDGLQLR
B3: PJA2 RING domain (UniProt O43164); chain DHTAIGQEQCCPICCSEYIKDDIATELPCHHFFHKPCVSIWLQKSGTCPVCRRHFPPAVIEA
B4: SHPRH RING domain (UniProt Q149N8); chain KTSGGVNPEPCPICARQLGKQWAVLTCGHCFCNECISIIIEQYSVGSHRSSIKCAICRQTTSHKEISY
B5: TRIM28 RING domain (UniProt Q13263); chain GAEALELLEHCGVCRERLRPEREPRLLPCLHSACSACLGPAAPAAANSSGDGGAAGDGTVVDCPVCKQQCFSKDIVE
Residues (chain): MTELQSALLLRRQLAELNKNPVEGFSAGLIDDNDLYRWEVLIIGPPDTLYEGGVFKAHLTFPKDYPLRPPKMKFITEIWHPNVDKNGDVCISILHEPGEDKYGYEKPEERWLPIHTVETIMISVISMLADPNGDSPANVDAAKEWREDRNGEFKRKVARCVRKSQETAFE
Sequence | lacZ reporter activity
KITELNPHLMCALCGGYFIDATTIVECLHSFCKTCIVRYLETNKYCPMCDVQVHKTRPLL (PCGF2 RING domain (UniProt P35227)) | 0
B1 (UBE4B RING domain) | 0
B2 (TRIM47 RING domain) | 0
SNNDLASLFECPVCFDYVLPPILQCQSGHLVCSNCRPKLTCCPTCRGPLGSIRNLA (SIAH1 RING domain (UniProt Q8IUQ4)) | 0
B3 (PJA2 RING domain) | 0
VPADASPDSKCPICLDRFDNVSYLDRCLHKFCFRCVQEWSKNKAECPLCKQPFDSIFHSV (TOPORS RING domain (UniProt Q9NS56)) | 0
B4 (SHPRH RING domain) | 0
B5 (TRIM28 RING domain) | 0

Sample 3
Target: ABI1, truncated, D143A, DHFR fusion (Arabidopsis thaliana)
Method: DHFR PCA, deep sequencing
Sample: yeast
Notes: methotrexate growth selection, single substitutions
With: (+)-ABA 2500 µM
Baseline: wild-type fitted maximum
Direction: higher = stronger binding
Starting sequence: PYL1, truncated, DHFR fusion (Arabidopsis thaliana); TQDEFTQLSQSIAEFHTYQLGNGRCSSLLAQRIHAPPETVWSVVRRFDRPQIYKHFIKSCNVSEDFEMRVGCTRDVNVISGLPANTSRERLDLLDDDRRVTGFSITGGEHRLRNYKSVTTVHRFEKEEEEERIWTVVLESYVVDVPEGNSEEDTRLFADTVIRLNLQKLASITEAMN
Variant | relative binding score [%]
D48N | 93.3
R49T | 95.3
E128C | 96.5
A84V | 50.5
F56H | 85.9
R123C | 99.6
V118G | 28.4
Y115A | 6.28
Q10Y | 91.3
I57P | -1.59
R74N | -5.16
V76I | 96
R113E | 103
E109Y | 96.8
R45K | 101
L112G | -1.61
V100Y | 84.5
G107F | 72.3

Sample 4
Target: CCNA2, cyclin fold, Cln2 fusion (human)
Method: yeast growth competition, sequencing
Sample: yeast
Notes: strong parent motif
Baseline: not given
Direction: higher = stronger binding
Starting sequence: CDC25A docking peptide (human); PPHRRRLLFACSP
Variant | normalised enrichment score
PPHRRRLLFYCSP [A10Y] | 1.94
PPHRRRLLFADSP [C11D] | 3.88
PPHRRRLLFACHP [S12H] | 2.08
PPHRRILLFACSP [R6I] | 1.53
PPHRRRLLVACSP [F9V] | 1.41
PPHRRRMLFACSP [L7M] | 1.27
PPHRRLLLFACSP [R6L] | 2.21
PPHRRRLLFACSR [P13R] | 2.01
PMHRRRLLFACSP [P2M] | 2.08
PPHRRRLLFACMP [S12M] | 2.51
PPHIRRLLFACSP [R4I] | 2.2
PPHRRALLFACSP [R6A] | 1.48
PPHRRRLLFAYSP [C11Y] | 2.22
PPHRRRLLYACSP [F9Y] | 1.75

Excerpt of the above (sample 2):
Sequence | lacZ reporter activity
B1 (UBE4B RING domain) | 0
VPADASPDSKCPICLDRFDNVSYLDRCLHKFCFRCVQEWSKNKAECPLCKQPFDSIFHSV (TOPORS RING domain (UniProt Q9NS56)) | 0
SNNDLASLFECPVCFDYVLPPILQCQSGHLVCSNCRPKLTCCPTCRGPLGSIRNLA (SIAH1 RING domain (UniProt Q8IUQ4)) | 0
B5 (TRIM28 RING domain) | 0
